Experimental data collected from several papers.
Each numbered part is a random draw from the data of one study; scales do not carry over between parts.

Block 1 — technique: protein-binding microarray; molecule type: double-stranded DNA, one strand shown; sample: in vitro; tested at: 940 nM top; notes: 60-bp whole probe; added: salmon DNA 0.4 mg/ml; relative to: random background probes; direction: higher = stronger binding; quantity: fitted relative affinity; constant ends, left off below: GCCTAGCAC … GTCTTGATTCGCTTGACGCTGCTG
Target: Interferon regulatory factor 5, full length, phosphomimetic (IRF5, Homo sapiens, UniProt Q13568-2, residues 1-514, S451D/S453D/S456D/S462D)
Strand = GACGGTATCCTTATCCTGTCGTGCTAG; result = 0.704 z-score
Strand = GACAGTCTCGGTTTCGGGACGTGCTAG; result = 8.1 z-score
Strand = TTGAAAAAATATTTATTTCAGTGCTAG; result = -0.127 z-score
Strand = GACGATTTCAGTCTCGAGAGGTGCTAG; result = 1.41 z-score
Strand = TTAGATTTCAGTTCCGAGTAGTGCTAG; result = 1.34 z-score
Strand = TTAGGTATCCTTTTCCATTAGTGCTAG; result = 0.866 z-score
Strand = TTAGATTTCAGCTTCGATTAGTGCTAG; result = -0.00767 z-score
Strand = GACCGACTGGGTTTCGGGACGTGCTAG; result = 3.93 z-score
Strand = TCATCTATTGCTTTCTCACTGTGCTAG; result = 1.42 z-score
Strand = GACGGTATCCGTCTCCTGACGTGCTAG; result = 0.25 z-score
Strand = GACGAACTGTGACTGGAGACGTGCTAG; result = -0.443 z-score
Strand = TCATTTTGCTTTCTTTTACTGTGCTAG; result = 2.01 z-score
Strand = TTAGAACTGAGTATCGATTAGTGCTAG; result = 4.49 z-score
Strand = ATAGGACTGCTTATCCTTTAGTGCTAG; result = -0.082 z-score
Strand = GACGAGTTCGGGTTTCGAGACGTGCTA; result = 2.09 z-score
Strand = GACCGTCTCGGTATCGGGACGTGCTAG; result = 4.56 z-score
Strand = GACGATTCCAGTTTCAAGACGTGCTAG; result = 1.28 z-score
Strand = GACCATTTCGGGTATCGAGACGTGCTA; result = 1.24 z-score

Block 2 — technique: universal PBM; molecule type: double-stranded DNA, one strand shown; sample: in vitro; tested at: not given; direction: higher = stronger binding; quantity: E-score
Target: Sal-like protein 4, full length isoform B (SALL4, Homo sapiens, UniProt Q9UJQ4-2, residues 1-616)
Notes: 8-mer, flanks averaged, mean of replicates
Residues (chain): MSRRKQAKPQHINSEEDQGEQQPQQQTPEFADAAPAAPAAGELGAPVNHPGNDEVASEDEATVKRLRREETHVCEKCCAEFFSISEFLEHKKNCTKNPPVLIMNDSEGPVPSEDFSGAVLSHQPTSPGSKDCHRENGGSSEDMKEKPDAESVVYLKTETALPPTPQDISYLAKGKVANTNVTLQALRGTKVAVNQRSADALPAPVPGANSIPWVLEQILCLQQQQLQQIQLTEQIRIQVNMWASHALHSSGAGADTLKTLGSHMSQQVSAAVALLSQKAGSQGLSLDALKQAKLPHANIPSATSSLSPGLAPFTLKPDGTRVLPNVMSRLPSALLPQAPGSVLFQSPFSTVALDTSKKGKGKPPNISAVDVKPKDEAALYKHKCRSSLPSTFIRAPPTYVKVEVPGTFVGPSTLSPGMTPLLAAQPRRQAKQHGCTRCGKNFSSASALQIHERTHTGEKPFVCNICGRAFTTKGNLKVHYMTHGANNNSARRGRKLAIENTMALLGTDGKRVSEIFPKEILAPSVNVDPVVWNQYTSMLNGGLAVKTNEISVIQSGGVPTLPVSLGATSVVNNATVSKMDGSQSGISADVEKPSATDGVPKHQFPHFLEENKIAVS
Strand = CCCTACAC; result = 0.0347
Strand = CCGTACGG; result = -0.137
Strand = TTAAAAAA; result = 0.312
Strand = CTGGAATC; result = -0.103
Strand = GGTAACGA; result = 0.0199
Strand = CACTTCGC; result = -0.0688
Strand = CCGGGCGC; result = -0.374
Strand = GCGGTGAC; result = -0.17
Strand = GTTCGTGA; result = -0.14
Strand = ATGTAAAC; result = 0.223
Strand = CACTAGCA; result = -0.0236
Strand = AGTGTACC; result = -0.0533
Strand = ACGACGTC; result = -0.132
Strand = GACGAACA; result = 0.0549
Strand = CGGCAAAA; result = -0.053
Strand = ATTTTGCC; result = 0.151
Strand = TGGGCACA; result = -0.055
Strand = CCGCAGCG; result = -0.273
Strand = AGCTAAGG; result = -0.228
Strand = AGTCGAGC; result = -0.282
Strand = AATGAGTA; result = 0.278
Strand = CTCGATAC; result = 0.114
Strand = GGCGAATA; result = 0.0261
Strand = GTTACAAA; result = 0.169
Strand = AACCACAG; result = -0.025

Block 3 — technique: RNAcompete; molecule type: RNA; sample: in vitro; tested at: 20 nM; notes: 7-mer, probes averaged, single round; relative to: mean of 7-mers; direction: higher = stronger binding; quantity: 7-mer Z-score
Target: PABPC1L2, full length, GST fusion (mouse, UniProt A0ABA7IW68)
Construct (chain): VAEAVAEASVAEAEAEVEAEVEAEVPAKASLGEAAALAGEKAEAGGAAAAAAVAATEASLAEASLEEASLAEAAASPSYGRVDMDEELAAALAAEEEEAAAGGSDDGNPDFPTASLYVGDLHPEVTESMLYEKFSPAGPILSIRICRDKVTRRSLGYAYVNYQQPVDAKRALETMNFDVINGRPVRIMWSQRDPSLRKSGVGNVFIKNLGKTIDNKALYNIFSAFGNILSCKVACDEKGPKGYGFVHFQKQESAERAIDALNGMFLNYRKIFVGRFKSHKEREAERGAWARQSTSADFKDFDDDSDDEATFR
Strand = GUGGCUA; result = 0.046
Strand = AGGGUAC; result = 0.0768
Strand = UCUAUUU; result = -0.302
Strand = AGUCUUU; result = -0.398
Strand = CGAAAGC; result = -0.186
Strand = AUCUGGC; result = -0.0319
Strand = UCGUUGG; result = -0.291
Strand = UUGCGUA; result = -0.302
Strand = UACUAAG; result = -0.0808
Strand = UAGAAAU; result = 1.45
Strand = GUGGGCG; result = 0.0913
Strand = CAGGUUA; result = -0.133
Strand = GUUGGAA; result = 0.254
Strand = CCAUUAU; result = -0.293
Strand = GGUCUCG; result = -0.202
Strand = CAUAGAU; result = -0.00289
Strand = GUGGGUC; result = -0.0645
Strand = GAGGGUU; result = 0.0334
Strand = CGAAUAU; result = -0.206

Block 4 — technique: RNA Bind-n-Seq; molecule type: RNA; sample: in vitro; tested at: 365 nM; relative to: no-protein control; direction: higher = stronger binding; quantity: RBNS enrichment (R)
Target: RNA binding protein fox-1 homolog 2, RRM domain, GST-SBP tag (RBFOX2, Homo sapiens, UniProt O43251-10, residues 100-194)
Notes: natural RNA segment, single round, ends assumed
Construct (chain): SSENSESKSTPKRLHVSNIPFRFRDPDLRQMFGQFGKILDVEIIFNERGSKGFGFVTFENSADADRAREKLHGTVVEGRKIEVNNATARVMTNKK
Strand = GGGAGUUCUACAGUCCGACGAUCCUCCAGCCAUCAAGAGACUGAGUCAAGUUGUUCCUUAAGUCAGAACAGCAGACUCAGCUCUGACAUUCUGAUUCGAAUGACACUGUUCAGGAAUCGGAAUCCUGUCGAUUUGGAAUUCUCGGGUGCCAA; result = 0.297
Strand = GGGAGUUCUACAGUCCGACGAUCAAGUACAUUUUUAUAUGUCAGUUGCUGCCCUUCACACUACCAGGCCCUGCAGCCACAGUGUUCUGUUGGAGAAACUUGGGGAAGUGUUUUCUGAACCAGUUCUUUUUCUUUGGAAUUCUCGGGUGCCAA; result = 0.27
Strand = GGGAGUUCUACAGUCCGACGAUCAGUGUCUUACUCUACUGGAUGCUGGAUAGAAAUUUAGGGUAACUUCUGACAAAGUGUGCCGGUCUAACAAUAAAAUAGGGUUUUGUAAUCUUCUGGUUGGUAAAAGAUAUUGGAAUUCUCGGGUGCCAA; result = 0.493
Strand = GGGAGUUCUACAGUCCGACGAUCAUCUUUGCUACCUAGAACCUGCAGUCUGUUUUAUGGCAACACUGGAUAAUGGCUUUUUGAAAUUGAGGGGGAAAAAUUGGAGCAUCUGUAAACAGAAAUGCCAAAUUAUUUGGAAUUCUCGGGUGCCAA; result = 0.796
Strand = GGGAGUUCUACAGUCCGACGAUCAUACCAGACCUCUGAAUUUGUAUUUUUUCUUGUUAACCAUUUUAAUUUGUUGGCUGGAUGUAUAAAGAUGUUUAAAAAAUUCAGUUGCUUUUUUGGGGUAAUUUGAAUUAUGGAAUUCUCGGGUGCCAA; result = 0.626
Strand = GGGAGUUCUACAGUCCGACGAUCCACCUAGAUUGUAAGCUCCCUGGGCCAGGACUUCAGCCUGCCUCCGAGGGUCCCCUGUGGCACCUAGCAUGGUGCACAGCACAUUAGAAGUGCUCAAAAACAUCUGAUGAUGGAAUUCUCGGGUGCCAA; result = 1.59
Strand = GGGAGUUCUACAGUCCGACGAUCCCCAGGCUGGAGUGCAGUGGUGUGAUCUUGGCUUUCUGCAACGUCUGCCUUCCAGGUUGAAGAGGUUCUCCUGCCUCAGCCUCCUUAGUAGUGGGAUUACAGGUGCCCGCUGGAAUUCUCGGGUGCCAA; result = 0.508
Strand = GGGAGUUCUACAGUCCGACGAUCGCUUCUGAGUUUUAUAUUGUUUGCAUCCCAUUGCCCUCAAUAAAGAAAGUCCUUUUUUUAAGUUCUGAAUUUGACGUAGAGUGUUUCUUGCUCCUUCUGAAAUGCUUGCUUGGAAUUCUCGGGUGCCAA; result = 0.832
Strand = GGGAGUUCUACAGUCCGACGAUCUGUCCAGGCUCCAGUGUGACAAUGGGUUGAGUCUCCAGGCCCUGGCCAGGACAUCCUGCUAUCAAUCAGAAGGACUUGGACUCUCCUGCAGAGUGCAAGUGUGGGUGUCGUGGAAUUCUCGGGUGCCAA; result = 0.433
Strand = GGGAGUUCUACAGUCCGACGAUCAUAGAUGUGUUUGCAAUUUGAAGAUAUCUUUCUGUCCAGAAGGCAAAAUUACCGAAUGCCAUUUUUAAAAGUAUGCUAUAAACUAUGCUACUCUCAUACAGGGGACCCGUUGGAAUUCUCGGGUGCCAA; result = 0.42
Strand = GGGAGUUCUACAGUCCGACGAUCAGCCCCAAGAGCAUCCAAUAAAAGCUGUGCCAUUAUUGAACUUGUCAAGACAUGGUCGAUCUUCCUCAAGCUAGAAGCAUGGAGUCCUGUAUACAGUGCAGAGCCUUCUCUGGAAUUCUCGGGUGCCAA; result = 0.42
Strand = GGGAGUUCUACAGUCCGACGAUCGAACCCAGGAACAUCUACAGCAGUCCCCAGAAAAACAUUCUUUCUGAGGAGGUUUAGGUGAAGUUGUGUUUGUGAACUCGGAGUUCUUCUCUGUAUUUGCCCAGGAUGGAUGGAAUUCUCGGGUGCCAA; result = 0.329

Repeated from above (block 2):
Strand = AGTGTACC; result = -0.0533
Strand = ACGACGTC; result = -0.132
Strand = GACGAACA; result = 0.0549
Strand = CGGCAAAA; result = -0.053
Strand = ATTTTGCC; result = 0.151
Strand = TGGGCACA; result = -0.055
Strand = CCGCAGCG; result = -0.273
Strand = AGCTAAGG; result = -0.228
